Results of several laboratories.
Numbered parts are unrelated; each lists some results of a single study.
Chain of UniProt P21728 (whole entry, looked up): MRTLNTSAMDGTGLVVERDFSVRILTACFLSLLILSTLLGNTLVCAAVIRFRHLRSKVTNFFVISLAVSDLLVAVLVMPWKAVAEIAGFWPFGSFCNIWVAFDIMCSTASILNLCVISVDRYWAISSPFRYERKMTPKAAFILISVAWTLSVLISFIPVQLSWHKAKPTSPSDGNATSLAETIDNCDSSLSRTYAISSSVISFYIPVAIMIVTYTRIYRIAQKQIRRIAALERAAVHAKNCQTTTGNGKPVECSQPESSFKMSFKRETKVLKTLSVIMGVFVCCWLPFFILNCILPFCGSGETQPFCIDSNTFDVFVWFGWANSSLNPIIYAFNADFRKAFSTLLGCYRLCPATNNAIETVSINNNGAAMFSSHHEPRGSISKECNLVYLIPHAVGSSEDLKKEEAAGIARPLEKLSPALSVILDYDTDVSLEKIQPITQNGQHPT

Block 1 — cell line: mouse MPNST tumor cells; technique: high-content nuclear imaging; refers to: cell number; tested at: 10 µM; time: 12 h; notes: mean of 2 replicates; relative to: plate mean; reading: higher = more cells; endpoint: nuclei count
CC(C)[C@H](O)C(=O)N[C@@H](C)C(=O)N[C@@H]1C(=O)N(C)CCc2ccccc21: -0.059 z-score
COc1cc(C(=O)OCCCN2CCCN(CCCOC(=O)c3cc(OC)c(OC)c(OC)c3)CC2)cc(OC)c1OC: -3.55 z-score
Cc1ccc(O)c(NC(=O)CCc2ccccc2)c1: -2.15 z-score

Block 2 — organism: Sarcocystis neurona; effect on: parasite growth; tested at: 10 µM; notes: secondary screen; endpoint: inhibition
CC1(C)S[C@@H]2[C@H](NC(=O)Cc3ccccc3)C(=O)N2[C@H]1C(=O)[O-].[K+]: -42.3%
COc1ccc2[nH]c([S+]([O-])Cc3ncc(C)c(OC)c3C)nc2c1 (centres unmarked): -36.3%
CC(C)NCC(O)c1cc(O)cc(O)c1 (centres unmarked): -31.2%

Single results of other studies
CNC(=O)c1ccc(Nc2ncc(C(F)(F)F)c(NCc3nccnc3N(C)S(C)(=O)=O)n2)cc1 — Ki (DRD1 (Homo sapiens, UniProt P21728); binding, radioligand binding): > 10 µM
Clc1ccc2ccn(Cc3ccccc3Br)c2n1 — remaining compound (human, microsomes or S9; 2 µM, 0.5 h): 9.21%

Some of these lines once more (block 1):
COc1cc(C(=O)OCCCN2CCCN(CCCOC(=O)c3cc(OC)c(OC)c(OC)c3)CC2)cc(OC)c1OC: -3.55 z-score
